Results of several laboratories.
Every numbered part comes from another study and shows a few of its results, in no order. Several values in a cell are separate wells, animals, samples, runs or records. ± gives the spread as reported.

Study 1
Structure (SMILES): Cc1ccc(O)c(C)c1-c1cnc2[nH]c(-c3cnc(N4CCC(CCN5CCN(c6ccc(NC7CCC(=O)NC7=O)cc6F)CC5)CC4)nc3)cc2c1C#N (stereo not shown)
Target: Membrane-associated tyrosine- and threonine-specific cdc2-inhibitory kinase (PKMYT1, Homo sapiens, UniProt Q99640)
UniProt Q99640, sequence (whole entry, looked up): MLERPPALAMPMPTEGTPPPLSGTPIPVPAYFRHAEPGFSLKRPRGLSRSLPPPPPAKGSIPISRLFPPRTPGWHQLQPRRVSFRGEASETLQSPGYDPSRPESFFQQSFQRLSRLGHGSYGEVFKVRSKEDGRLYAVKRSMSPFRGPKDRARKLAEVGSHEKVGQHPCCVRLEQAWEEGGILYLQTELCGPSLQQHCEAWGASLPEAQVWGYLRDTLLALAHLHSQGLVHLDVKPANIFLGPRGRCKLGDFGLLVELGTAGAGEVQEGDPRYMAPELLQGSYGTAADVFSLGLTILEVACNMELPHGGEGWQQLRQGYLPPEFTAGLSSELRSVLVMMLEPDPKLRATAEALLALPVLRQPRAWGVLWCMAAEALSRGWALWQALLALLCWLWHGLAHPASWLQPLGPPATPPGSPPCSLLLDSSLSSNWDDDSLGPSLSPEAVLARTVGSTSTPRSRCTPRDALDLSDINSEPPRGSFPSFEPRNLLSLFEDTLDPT
Endpoint: inhibition
cell-free assay, inhibitor, TR-FRET; 1.37 nM: 16.5%
cell-free assay, inhibitor, TR-FRET; 0.1111 µM: 97.9%
0.00137 µM: 17.6%
0.00046 µM: 2.42%
cell-free assay, inhibitor, TR-FRET; 1 µM: 99.8%
0.00412 µM: 56.9%
0.03704 µM: 96.6%

Study 2
SMILES: C[C@@H]1CN(c2ccc(-c3cc(C(=O)NCCOCCOCCOCCOCCOCCOCCNC(=O)/C=C/c4[nH]cc(C(=O)N[C@@H](CC(N)=O)c5ccc(F)c(Cl)c5)c4-c4ccc(Cl)cc4F)ccc3F)cc2NC(=O)c2ccc(F)cc2C(F)(F)F)C[C@H](C)N1C
Read-out: thermal unfolding
Method: differential scanning fluorimetry
Concentration: 5.5 µM
Direction: higher = more unfolded
Endpoint: SYPRO Orange fluorescence
DCAF1: DDB1- and CUL4-associated factor 1 (DCAF1, Homo sapiens, UniProt Q9Y4B6)
UniProt Q9Y4B6, sequence (whole entry, looked up): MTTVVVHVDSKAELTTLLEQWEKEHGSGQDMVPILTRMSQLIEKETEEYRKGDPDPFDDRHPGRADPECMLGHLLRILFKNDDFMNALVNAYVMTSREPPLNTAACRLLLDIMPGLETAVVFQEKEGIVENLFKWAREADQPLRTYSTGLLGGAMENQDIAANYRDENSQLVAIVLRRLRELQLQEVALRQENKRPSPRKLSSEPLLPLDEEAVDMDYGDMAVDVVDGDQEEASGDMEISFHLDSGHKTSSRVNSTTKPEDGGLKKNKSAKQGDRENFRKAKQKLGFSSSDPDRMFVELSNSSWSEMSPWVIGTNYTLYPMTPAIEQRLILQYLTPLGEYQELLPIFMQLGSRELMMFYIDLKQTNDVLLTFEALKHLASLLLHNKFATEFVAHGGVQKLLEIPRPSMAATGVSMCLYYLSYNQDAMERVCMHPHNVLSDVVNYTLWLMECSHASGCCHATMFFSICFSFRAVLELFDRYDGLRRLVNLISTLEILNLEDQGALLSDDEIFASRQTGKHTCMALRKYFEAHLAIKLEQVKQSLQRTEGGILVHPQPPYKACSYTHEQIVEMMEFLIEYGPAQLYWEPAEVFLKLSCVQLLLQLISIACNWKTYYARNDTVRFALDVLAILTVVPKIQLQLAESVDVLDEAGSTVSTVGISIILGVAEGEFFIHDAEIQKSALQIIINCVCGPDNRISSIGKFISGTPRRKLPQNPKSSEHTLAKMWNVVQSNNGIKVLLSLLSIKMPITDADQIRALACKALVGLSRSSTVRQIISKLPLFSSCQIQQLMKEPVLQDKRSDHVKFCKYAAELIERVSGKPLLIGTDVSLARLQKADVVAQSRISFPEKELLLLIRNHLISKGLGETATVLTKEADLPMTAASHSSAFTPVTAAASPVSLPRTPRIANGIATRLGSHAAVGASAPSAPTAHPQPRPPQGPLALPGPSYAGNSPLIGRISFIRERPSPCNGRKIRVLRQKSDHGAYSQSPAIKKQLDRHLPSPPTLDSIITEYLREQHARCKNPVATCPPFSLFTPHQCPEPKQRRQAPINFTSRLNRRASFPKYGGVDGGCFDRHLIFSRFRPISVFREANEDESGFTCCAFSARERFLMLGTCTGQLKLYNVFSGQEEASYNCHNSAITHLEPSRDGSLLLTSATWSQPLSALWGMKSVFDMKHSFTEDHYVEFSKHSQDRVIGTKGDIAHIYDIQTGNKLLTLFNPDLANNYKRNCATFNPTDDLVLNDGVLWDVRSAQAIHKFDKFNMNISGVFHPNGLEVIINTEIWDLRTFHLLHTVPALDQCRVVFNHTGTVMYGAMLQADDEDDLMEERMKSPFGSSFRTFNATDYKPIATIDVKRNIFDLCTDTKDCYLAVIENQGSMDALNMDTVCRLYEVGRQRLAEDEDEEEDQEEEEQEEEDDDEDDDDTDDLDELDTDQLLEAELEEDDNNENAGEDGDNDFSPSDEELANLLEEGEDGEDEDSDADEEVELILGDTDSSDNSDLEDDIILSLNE
WDR5: WD repeat-containing protein 5 (WDR5, Homo sapiens, UniProt P61964)
DCAF1; 91.61 °C: 31200 a.u.
WDR5; 44 °C: 14500 a.u.
DCAF1; 56.41 °C: 32000 a.u.
DCAF1; 33.4 °C: 9380 a.u.
WDR5; 31 °C: 13600 a.u.
WDR5; 25.2 °C: 13200 a.u.
WDR5; 94.21 °C: 49100 a.u.
DCAF1; 31.2 °C: 8770 a.u.
DCAF1; 75.41 °C: 43400 a.u.
DCAF1; 41 °C: 12100 a.u.
WDR5; 34.6 °C: 13800 a.u.

Study 3
SMILES: O=C(O)C1(O)Oc2cc(Br)ccc2N(Cc2ccccc2)C1=O (stereo not shown)
Organism: Arabidopsis thaliana
Strain: Col-0
Notes: seed germination, single repetition
Endpoint: hypocotyl length
3.125 µg/mL: 2.13 cm and 2.11 cm and 2.08 cm and 2.07 cm
50 µg/mL: 1.32 cm and 1.35 cm and 1.34 cm and 1.33 cm and 1.38 cm
25 µg/mL: 1.67 cm and 1.65 cm and 1.79 cm and 1.71 cm and 1.68 cm

Mixed results
Target: Sodium-dependent neutral amino acid transporter B(0)AT1 (SLC6A19, Homo sapiens, UniProt Q695T7)
UniProt Q695T7, sequence (whole entry, looked up): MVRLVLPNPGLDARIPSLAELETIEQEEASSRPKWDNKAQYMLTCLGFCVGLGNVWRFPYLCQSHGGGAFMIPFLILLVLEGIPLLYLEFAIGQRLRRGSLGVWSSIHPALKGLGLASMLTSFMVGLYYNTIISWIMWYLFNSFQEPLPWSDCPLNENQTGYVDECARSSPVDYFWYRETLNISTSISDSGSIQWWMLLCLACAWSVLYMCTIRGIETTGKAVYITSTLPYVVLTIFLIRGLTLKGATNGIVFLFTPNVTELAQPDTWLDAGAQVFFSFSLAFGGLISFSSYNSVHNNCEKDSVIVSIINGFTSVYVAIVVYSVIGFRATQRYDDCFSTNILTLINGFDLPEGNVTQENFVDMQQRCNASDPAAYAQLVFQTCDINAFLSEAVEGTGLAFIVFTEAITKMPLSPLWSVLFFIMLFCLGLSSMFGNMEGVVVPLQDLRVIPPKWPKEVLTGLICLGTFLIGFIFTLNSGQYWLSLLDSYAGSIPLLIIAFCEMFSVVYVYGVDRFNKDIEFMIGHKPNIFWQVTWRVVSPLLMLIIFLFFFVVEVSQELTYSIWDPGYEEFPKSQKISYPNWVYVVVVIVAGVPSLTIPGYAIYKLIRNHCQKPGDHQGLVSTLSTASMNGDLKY
Action: inhibitor
Cells: CHO-BC cells
CCNC(=O)COc1cc(C)c(Cl)c(C)c1  remaining transport activity (L-[14C]leucine uptake; 10 µM, 6 min, unit not given, together with: GPNA 3 mM, JPH203 3 µM; baseline: uninhibited cells): 0.11
Cc1cc(OCC(=O)NC(C)C)ccc1I  remaining transport activity (FLIPR membrane potential; 0.001 µM, unit not given; baseline: uninhibited cells): 1.07
CC(C)NC(=O)COc1ccc2ccccc2c1  remaining transport activity (FLIPR membrane potential; 10 µM, unit not given; baseline: no inhibitor): 0.298
Cc1cc(OCC(=O)OC(C)C)cc(C)c1Cl  activity (FLIPR membrane potential; 30 µM, together with: L-leucine 1.5 mM; baseline: cinromide): 102 ± 10%
